Published values collected from several papers.
± gives the spread as reported.
Cell line: HL-60

| SMILES | assay | setting | how to read | measurement | result |
| --- | --- | --- | --- | --- | --- |
| O=C(O)c1cc(O)c2c(c1)C(=O)c1cccc(O)c1C2=O | cell growth or viability, ATP luminescence | 24 h | – | IC50 | 150 µM |
| CCCN(CCC)c1ccc(C=O)cc1 | cell differentiation, NBT staining | up to 50 µM, 144 h, together with: retinal 1 µM | baseline: retinal alone | inhibition | 30% |
| N=C(CF)NCCC[C@H](NC(=O)c1ccccc1)C(N)=O.O=C(O)C(F)(F)F | MTT | 1 µM, together with: doxorubicin | – | viability | 8.14 ± 5.1% |
| COc1ccc(/C=C/C(=O)CC2(O)C(=O)Nc3cc(Br)ccc32)cc1 (centres unmarked) | cell growth or viability, MTT | 24 h | – | IC50 | 22.9 µM |
| CC(C)(O)C(O)Cc1c(O)cc(/C=C/c2ccccc2)cc1O (centres unmarked) | reactive oxygen species, inhibitor, fluorescence | – | – | IC50 | 9.5 mg/L |
| CCN(CC)c1ccc(C=O)cc1 | cell differentiation, NBT staining | up to 50 µM, 144 h, together with: retinal 1 µM | baseline: retinal alone | inhibition | 30% |
| CC(C)C[C@H](NC(=O)[C@H](C)NC(=O)[C@H](CC(N)=O)NC(=O)[C@H](CCC(=O)O)NC(=O)[C@@H](N)CCCCN)C(=O)N[C@@H](CC(C)C)C(=O)N[C@@H](CCCNC(=N)N)C(=O)N[C@@]1(C)CCCC=CCCC[C@@](C)(C(=O)N[C@@H](CC(=O)O)C(=O)NCC(=O)NCC(=O)NCC(=O)N[C@@H](CCCNC(=N)N)C(=O)N[C@@H](CCCNC(=N)N)C(=O)N[C@@H](CCCNC(=N)N)C(=O)N[C@@H](CCCNC(=N)N)C(=O)N[C@@H](CCCNC(=N)N)C(=O)N[C@@H](CCCNC(=N)N)C(=O)N[C@@H](CCCNC(=N)N)C(=O)N[C@@H](CCCNC(=N)N)C(=O)N[C@@H](CCCNC(=N)N)C(N)=O)NC(=O)[C@H](CC(=O)O)NC(=O)[C@H](CC(C)C)NC(=O)[C@H](CC(C)C)NC1=O | measured: p21 | 10 µM, 24 h, together with: 1α,25(OH)2D3 30 nM | baseline: GAPDH | mRNA level | decreased |
| CC(C)/C=C/c1c(O)cc(/C=C/C2=CC(=O)OC2CC(=O)O)cc1O (centres unmarked) | reactive oxygen species, inhibitor, fluorescence | – | – | IC50 | 0.3 mg/L |
| CC(C)C[C@H](NC(=O)[C@H](C)NC(=O)[C@H](CC(N)=O)NC(=O)[C@H](CCC(=O)O)NC(=O)[C@@H](N)CCCCN)C(=O)N[C@@H](CC(C)C)C(=O)N[C@@H](CCCNC(=N)N)C(=O)N[C@@H](Cc1ccc(O)cc1)C(=O)N[C@@H](CC(C)C)C(=O)N[C@@H](CC(C)C)C(=O)N[C@@H](CC(=O)O)C(=O)N[C@@H](CCCCN)C(=O)N[C@@H](CC(=O)O)C(=O)NCC(=O)NCC(=O)NCC(=O)N[C@@H](CCCNC(=N)N)C(=O)N[C@@H](CCCNC(=N)N)C(=O)N[C@@H](CCCNC(=N)N)C(=O)N[C@@H](CCCNC(=N)N)C(=O)N[C@@H](CCCNC(=N)N)C(=O)N[C@@H](CCCNC(=N)N)C(=O)N[C@@H](CCCNC(=N)N)C(=O)N[C@@H](CCCNC(=N)N)C(=O)N[C@@H](CCCNC(=N)N)C(N)=O | measured: p21 | 10 µM, 24 h, together with: 1α,25(OH)2D3 30 nM | baseline: GAPDH | mRNA level | decreased |
| CC(C)=CCC/C(C)=C/Cc1c(O)cc(/C=C/c2ccc(O)cc2O)cc1O | reactive oxygen species, inhibitor, fluorescence | – | – | IC50 | 0.8 mg/L |
| O=c1cc(-c2ccc(O)cc2)oc2cc(O)cc(O)c12 | cell growth or viability, ATP luminescence | 24 h | – | IC50 | 100 µM |

Excerpt of the above:
| SMILES | assay | setting | how to read | measurement | result |
| --- | --- | --- | --- | --- | --- |
| CC(C)=CCC/C(C)=C/Cc1c(O)cc(/C=C/c2ccc(O)cc2O)cc1O | reactive oxygen species, inhibitor, fluorescence | – | – | IC50 | 0.8 mg/L |
| O=c1cc(-c2ccc(O)cc2)oc2cc(O)cc(O)c12 | cell growth or viability, ATP luminescence | 24 h | – | IC50 | 100 µM |
